Experimental data of several laboratories.
Lines come from different studies, so protocols differ. “And” joins repeats or separate records; there may be more than shown. Numbers after ± are the reported error.

Structure (SMILES)	test system	conditions	measurement	result
C=C[C@]1(C)C[C@@H](OC(=O)CSc2ccc(NC(=O)c3ccco3)cc2)[C@]2(C)[C@H](C)CC[C@]3(CCC(=O)[C@H]32)[C@@H](C)[C@@H]1O	Mycoplasma gallisepticum-infected chickens, plasma	intramuscular, 40 mg/kg, 12 h	plasma concentration	35.8 ng/mL and 56.5 ng/mL and 6.98 ng/mL and 35.1 ng/mL and 37.2 ng/mL and 36.7 ng/mL and 39.3 ng/mL and 53.1 ng/mL
C[C@@H](CO)NC(=O)c1cc(-c2ccc(Cl)cc2)nn(-c2cnn(C)c2)c1=O	human plasma	up to 2 h, 37 °C	plasma stability	stable
COc1ccc2c(c1)CN(C(=O)CCN1CCC(Cc3ccccc3)CC1)CC[S@@+]2[O-]	healthy male volunteers	intravenous, 0.2 mg/kg	plasma concentration	481 ng/mL
COc1ccc2cc3[n+](cc2c1OCCCOC(=O)c1cscn1)CCc1cc2c(cc1-3)OCO2	hyperlipidemic hamster	dose not given, 3 weeks	plasma AST reduction	40.5%
Cc1cccc(Cn2ncc3c4cc(F)c(CN(C)C)cc4n(C)c3c2=O)n1	Dutch-belted rabbit, plasma	intravitreal, 100 µM vitreous, 7.00 days	plasma concentration	2.19 ng/mL
CC(=O)N[C@H](CC(=O)O)C(=O)N[C@H](Cc1c[nH]c2ccccc12)C(=O)N[C@H](Cc1ccccc1)C(=O)N[C@H](CCCCN)C(=O)N[C@H](C)C(=O)N[C@H](Cc1ccccc1)C(=O)N[C@H](Cc1ccc(O)cc1)C(=O)N[C@H](CC(=O)O)C(=O)N[C@H](CCCCN)C(=O)N[C@@H](C(=O)N[C@H](C)C(=O)N[C@H](CCC(=O)O)C(=O)N[C@H](CCCCN)C(=O)N[C@H](Cc1ccccc1)C(=O)N[C@H](CCCCN)C(=O)N[C@H](CCC(=O)O)C(=O)N[C@H](C)C(=O)N[C@H](Cc1ccccc1)C(N)=O)C(C)C	human, plasma	oral, 500 mg daily, 2 h post-dose, day 1	plasma concentration	222 ng/mL
CN1CCN(C(=S)N/N=C/c2ccccc2O)CC1	plasma	intravenous, 30 mg/kg, 5 min	plasma concentration	8420 ± 721 ng/mL
COc1ccc2c(c1)CN(C(=O)CCN1CCC(Cc3ccccc3)CC1)CCS2	paroxysmal atrial fibrillation patients, plasma	oral, 540 mg, 10 min	plasma concentration	75.1 ± 37.9 ng/mL
O=C(Oc1cccc(CSc2ncccn2)c1)c1ccc([N+](=O)[O-])cc1	mouse plasma	concentration not given, 5 min	plasma level	not detected

Some of these lines once more:
Structure (SMILES)	test system	conditions	measurement	result
C[C@@H](CO)NC(=O)c1cc(-c2ccc(Cl)cc2)nn(-c2cnn(C)c2)c1=O	human plasma	up to 2 h, 37 °C	plasma stability	stable
